Measurements gathered from unrelated publications.
Numbered parts are unrelated; each lists some results of a single study. Changes are numbered by the printed parent chain.

Series 1
Target: TAR DNA-binding protein 43, full length, His tag (TARDBP, Homo sapiens, UniProt Q13148, residues 1-414)
Technique: RNA Bind-n-Seq
Molecule type: RNA
Medium: in vitro
Concentration: 20 nM
Setting: 6-mer, flanks averaged, single round
Added: 150 mM KCl
Relative to: input library
Reading: higher = stronger binding
| Strand | 6-mer enrichment (R) |
| --- | --- |
| AUAUUC | 0.562 |
| CUUGGA | 0.778 |
| CGGUCU | 0.728 |
| GAUGUA | 0.88 |
| ACCGCG | 0.939 |
| GUCUAG | 0.857 |
| GUCUUA | 0.604 |
| CGAUUU | 0.582 |
| AUCGCG | 0.878 |
| GAGGGG | 8.71 |
| CUGAAC | 0.64 |
| GAAUAA | 0.888 |
| ACACCA | 0.74 |
| CACCCG | 0.754 |
| AAGCUA | 0.617 |
| AAGCGU | 0.817 |

Series 2
Target: RNA binding protein fox-1 homolog 2, RRM domain, GST-SBP tag (RBFOX2, Homo sapiens, UniProt O43251-10, residues 100-194)
Technique: RNA Bind-n-Seq
Molecule type: RNA
Medium: in vitro
Concentration: 365 nM
Setting: natural RNA segment, single round, ends assumed
Relative to: no-protein control
Reading: higher = stronger binding
Construct (chain): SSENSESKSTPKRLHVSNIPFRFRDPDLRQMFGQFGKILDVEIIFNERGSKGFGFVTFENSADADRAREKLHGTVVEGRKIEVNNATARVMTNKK
| Strand | RBNS enrichment (R) |
| --- | --- |
| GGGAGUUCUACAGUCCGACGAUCAGGGAGACAGUUACCUAGACUACCAGGUAGAAGGGACAGGGGUCAGGUCAACCUCACACUGAUAUGCUCCUCGACUAGAGAGGUCUCCAAGCCCAGAACAGAGACUUGAAUGGAAUUCUCGGGUGCCAA | 1.05 |
| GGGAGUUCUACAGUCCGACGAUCAGACCAUGCCCACUGGAUAGAUGGGCAGAGAACCAGCACCUAAAGAACACCUACUGUGUGCCAGGCACUUUACAUCCCCCCCUCAGUGUCUACCUAGUCUGCUGGGCUGAUGGAAUUCUCGGGUGCCAA | 0.493 |
| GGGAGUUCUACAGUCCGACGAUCGCAUUCCCCUGACAAAGGUAUCAUGUGUACAGCUCAGUAGUGUGCCCUGUCCUUCUCAUGGACUCCAUUCAUGUCUGCUCCUCACUAACAGACUUGGGUUUUCCCAAUACUGGAAUUCUCGGGUGCCAA | 0.335 |
| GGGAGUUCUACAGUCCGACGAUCCAAUAGAGCCCACCAACCACAUAGAAGUCCCCUGGCUAGAGUCUGAUGCCUGGUGGCUUACCGGACUUCUCAGUCAAUUCUGAAAGGUAUAUUUUGGGCACACAGUGAAAUGGAAUUCUCGGGUGCCAA | 0.447 |
| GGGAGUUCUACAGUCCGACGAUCGGCUGCCCAGGUGGCUGCACUCCGGGGAUCACGUUUCAGUACUGAGUUCCUUCACGCACUUGGUUCACCACCAUCACUCUUGAGUUUUGGACAAAAGAGGUGGGUAUGCCUGGAAUUCUCGGGUGCCAA | 0.383 |
| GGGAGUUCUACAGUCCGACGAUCGCCACUACCUUGGGUGUCCUUACAGCUCUGCCCUGACCCCAGCCCCUGCCCCUGGACACCUGCUGACAGCUCCCACACAGAACAGUCUGAGGUGAUGCUGGCUACAGCCCUGGAAUUCUCGGGUGCCAA | 0.351 |
| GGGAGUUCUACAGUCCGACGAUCCUGAUUUCUUAUCUGGAAAUGGUACACUGAAUUCUCUGGGUGGCUUUCUUGUGGCCCCAUGGGAUGCAGCGUGGGGGCUGUCUGAAGGACCCUGCUUUUUCCAGGGGCCGUGGAAUUCUCGGGUGCCAA | 0.407 |
| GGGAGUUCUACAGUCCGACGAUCCAGCAGCUAGUGGGAGAGCACCAGUUGGGCCUAAUCCUGCCUCAUCAUUCUUGGCAGGAAUCUGCAAAUGGAAACAUUGUGAGUAUCAGCAAUCUGGGAAGUGACAGGGUUGGAAUUCUCGGGUGCCAA | 0.923 |
| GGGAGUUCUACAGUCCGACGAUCUUAUUUUUAUACUUUGAUUUUCACUAGUUUUGCUUUUAUGUAAAAGUCAAAAUAAACUUUUCAUCCUAAAGGAAAUCUUGUUGGAUCUCUUUUAGCCAAGGGAAUCAGCUUGGAAUUCUCGGGUGCCAA | 0.727 |
| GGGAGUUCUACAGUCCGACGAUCUUUUUUUUUUUUCUUUUUCCAUAGGAAAGAAUAUAUAAAUUUGUAAAUCCUAAUUCAAAGAUGGCUCAUGUGUGAGGGCAUUGAGUUUGAUUUGUUUUCCCUUUGGUCUGUGGAAUUCUCGGGUGCCAA | 0.786 |
| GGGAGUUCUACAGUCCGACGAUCGAGCCCUCAGAAUGCCCACCAUGCACACAGAGACUCCAUUCUCCCCAGGACCAAGUCCUCUGCUGUUGGGGACCAUGGCCUGUCUCCUCACCUUAGUCCCUGGGCGUUUGUGGAAUUCUCGGGUGCCAA | 1.37 |
| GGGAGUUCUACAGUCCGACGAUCGGUCAGGGCUUAUAGCAGGAUGUCUGGCUGCACCUGGCAUGACUGUUUGUUUCUCCAAGCCUGCUUUGUGCUUCUCACCUUUGGGUGGGAUGCCUUGCCAGUGUGUCUUAUGGAAUUCUCGGGUGCCAA | 0.594 |

Series 3
Target: Prothrombin, mature alpha-thrombin (F2, Homo sapiens, UniProt P00734)
Technique: aptamer microarray, sandwich
Molecule type: DNA with 2'F-ANA
Medium: in vitro
Concentration: 200 nM
Setting: whole 15-mer aptamer, many near background
Added: Cy3 exosite-II aptamer, 400 nM
Reading: higher = stronger binding
Strand: GGTTGGTGTGGTTGG
| Modification | mean fluorescence intensity |
| --- | --- |
| 2'F-ANA at 3 4 6 7 11 13 14 15 | 237 a.u. |
| 2'F-ANA at 1 2 4 7 8 10 12 13 15 | 59.7 a.u. |
| 2'F-ANA at 2 5 6 7 9 10 13 15 | 75.2 a.u. |
| 2'F-ANA at 2 3 4 7 9 10 12 15 | 312 a.u. |
| 2'F-ANA at 5 6 10 14 15 | 115 a.u. |
| 2'F-ANA at 3 4 5 7 | 107 a.u. |
| 2'F-ANA at 1 2 6 13 | 110 a.u. |
| 2'F-ANA at 1 2 5 6 7 14 | 69.5 a.u. |
| 2'F-ANA at 1 4 5 8 9 10 11 12 14 15 | 60.2 a.u. |
| 2'F-ANA at 2 3 4 5 6 7 8 9 10 12 14 15 | 53.1 a.u. |
| 2'F-ANA at 6 9 13 15 | 310 a.u. |
| 2'F-ANA at 1 2 6 8 9 10 15 | 56 a.u. |
| 2'F-ANA at 3 5 6 7 9 14 15 | 48.1 a.u. |
| 2'F-ANA at 1 3 6 7 10 12 13 15 | 102 a.u. |
| 2'F-ANA at 1 4 7 8 9 12 13 | 193 a.u. |
| 2'F-ANA at 2 5 7 8 9 12 13 15 | 120 a.u. |
| 2'F-ANA at 3 6 9 14 15 | 509 a.u. |
| 2'F-ANA at 3 7 9 10 11 12 13 | 553 a.u. |
| 2'F-ANA at 4 5 9 13 14 15 | 47.5 a.u. |
| 2'F-ANA at 2 3 5 6 7 8 9 10 | 52.6 a.u. |
| 2'F-ANA at 2 3 4 6 10 15 | 215 a.u. |

Series 4
Target: Histone acetyltransferase KAT6A, both winged helices, GST fusion (KAT6A, Homo sapiens, UniProt Q92794, residues 1-181)
Technique: protein binding microarray
Molecule type: double-stranded DNA, one strand shown
Medium: in vitro
Concentration: not given
Setting: 8-mer, flanks averaged, mean of 2 arrays, mostly near background
Relative to: not given
Reading: higher = stronger binding
Construct (chain): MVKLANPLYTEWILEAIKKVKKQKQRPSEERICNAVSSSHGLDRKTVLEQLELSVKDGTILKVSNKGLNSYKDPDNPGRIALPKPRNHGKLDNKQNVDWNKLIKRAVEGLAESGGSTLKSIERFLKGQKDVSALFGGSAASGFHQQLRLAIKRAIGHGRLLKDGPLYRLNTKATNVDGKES
| Strand | E-score |
| --- | --- |
| GGCACGAA | -0.119 |
| CTAAGACC | -0.116 |
| ATGATGGA | -0.0905 |
| CACGACCA | -0.218 |
| AAACTACG | 0.0943 |
| ATGATCCG | 0.21 |
| CCATCTCG | -0.102 |
| CGGACGCC | 0.284 |
| AACTGCAG | -0.0993 |
| CACGGCTA | 0.319 |
| AACGCTTC | 0.168 |
| CGGAAAAC | 0.18 |
| CCCCGAGG | 0.04 |
| ATACATTA | 0.0371 |
| AACTACGA | -0.0487 |
| AGCCCCGA | -0.0399 |
| CAGGTTAC | -0.0418 |
| GAACCAAC | -0.181 |
| AACGAGAT | -0.114 |
| TAAACAGA | -0.139 |
| AGGTTGAG | -0.107 |
| GCGTGATA | 0.183 |
| CCAGACTC | -0.178 |
| AAAGGGGA | -0.121 |
| CAATATTA | 0.0153 |

Series 5
Target: CCNB1, cyclin fold, Cln2 fusion (human)
Technique: yeast growth competition, sequencing
Medium: yeast
Setting: weak parent motif
Relative to: not given
Reading: higher = stronger binding
Starting sequence: CDKN1B docking peptide (human); PSACRNLFGPVDH
| Substitution | normalised enrichment score |
| --- | --- |
| PSACRNLFGPADH [V11A] | 0.157 |
| PSACRNLDGPVDH [F8D] | 0.205 |
| PSKCRNLFGPVDH [A3K] | 0.0194 |
| PHACRNLFGPVDH [S2H] | 0.38 |
| PSACRNDFGPVDH [L7D] | 0.337 |
| WSACRNLFGPVDH [P1W] | 0.358 |
| PSACRNLFGWVDH [P10W] | 0.422 |
| PSACRNLFGPNDH [V11N] | 0.265 |
| PSACRNLFGKVDH [P10K] | 0.364 |
| PSACRNLFGPPDH [V11P] | 0.278 |
| PSACRSLFGPVDH [N6S] | 0.0344 |
| PSACRCLFGPVDH [N6C] | 0.584 |
| PSACRNLTGPVDH [F8T] | 0.0402 |
| PSACWNLFGPVDH [R5W] | -0.141 |
| PSACRNCFGPVDH [L7C] | -0.321 |
| PSACRNLFGRVDH [P10R] | 0.936 |
| PSACRNLFKPVDH [G9K] | 1.53 |
| PSACRNLFGPVYH [D12Y] | 0.722 |
| PSACRNGFGPVDH [L7G] | 0.325 |
| PSACRNLFYPVDH [G9Y] | 0.526 |
| PKACRNLFGPVDH [S2K] | 1.14 |
| PSACRNLFGPFDH [V11F] | 0.79 |

A few entries again (series 4):
| Strand | E-score |
| --- | --- |
| AACGCTTC | 0.168 |
| CGGAAAAC | 0.18 |
| CCCCGAGG | 0.04 |
| ATACATTA | 0.0371 |
| AACTACGA | -0.0487 |
| AGCCCCGA | -0.0399 |
| CAGGTTAC | -0.0418 |
| GAACCAAC | -0.181 |
| AACGAGAT | -0.114 |
| TAAACAGA | -0.139 |
| AGGTTGAG | -0.107 |
| GCGTGATA | 0.183 |
| CCAGACTC | -0.178 |
| AAAGGGGA | -0.121 |
